Measured values from different studies.
Numbered parts are unrelated; each lists some results of a single study.
Chain of UniProt Q16832 (whole entry, looked up): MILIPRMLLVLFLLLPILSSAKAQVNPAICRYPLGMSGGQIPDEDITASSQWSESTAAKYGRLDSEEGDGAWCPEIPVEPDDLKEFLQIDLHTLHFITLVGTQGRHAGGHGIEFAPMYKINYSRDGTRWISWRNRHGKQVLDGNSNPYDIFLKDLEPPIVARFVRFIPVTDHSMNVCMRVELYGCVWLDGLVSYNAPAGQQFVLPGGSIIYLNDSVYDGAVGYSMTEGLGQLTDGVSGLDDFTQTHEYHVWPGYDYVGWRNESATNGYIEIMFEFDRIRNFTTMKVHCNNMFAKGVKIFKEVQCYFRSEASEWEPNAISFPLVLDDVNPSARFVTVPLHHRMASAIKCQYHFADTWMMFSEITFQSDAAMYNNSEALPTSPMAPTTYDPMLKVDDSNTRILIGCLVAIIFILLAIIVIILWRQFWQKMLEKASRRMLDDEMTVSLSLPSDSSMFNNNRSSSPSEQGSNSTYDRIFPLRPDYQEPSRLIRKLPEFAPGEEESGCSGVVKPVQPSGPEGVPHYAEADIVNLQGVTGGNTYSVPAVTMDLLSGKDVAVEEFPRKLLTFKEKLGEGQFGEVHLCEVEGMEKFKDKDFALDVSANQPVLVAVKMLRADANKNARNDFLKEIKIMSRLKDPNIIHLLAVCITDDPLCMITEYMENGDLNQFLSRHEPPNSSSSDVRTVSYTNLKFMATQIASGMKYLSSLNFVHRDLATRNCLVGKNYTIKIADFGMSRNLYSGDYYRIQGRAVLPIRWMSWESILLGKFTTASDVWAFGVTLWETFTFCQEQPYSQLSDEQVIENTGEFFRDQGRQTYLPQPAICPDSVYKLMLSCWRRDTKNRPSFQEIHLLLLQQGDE
Chain of UniProt O14730 (whole entry, looked up): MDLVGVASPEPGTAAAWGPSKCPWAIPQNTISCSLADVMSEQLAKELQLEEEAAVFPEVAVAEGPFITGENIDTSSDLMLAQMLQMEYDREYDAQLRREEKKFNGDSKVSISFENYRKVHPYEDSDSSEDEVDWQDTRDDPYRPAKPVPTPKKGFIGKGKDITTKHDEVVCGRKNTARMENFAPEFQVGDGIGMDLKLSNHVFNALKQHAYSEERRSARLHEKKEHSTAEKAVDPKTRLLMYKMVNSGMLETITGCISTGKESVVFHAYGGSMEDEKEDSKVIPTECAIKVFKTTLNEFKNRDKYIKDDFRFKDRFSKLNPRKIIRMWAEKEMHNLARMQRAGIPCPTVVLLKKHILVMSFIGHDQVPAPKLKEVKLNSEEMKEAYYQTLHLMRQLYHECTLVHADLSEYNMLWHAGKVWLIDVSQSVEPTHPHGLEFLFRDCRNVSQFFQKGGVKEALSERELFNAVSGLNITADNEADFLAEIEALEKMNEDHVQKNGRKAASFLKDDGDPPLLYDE
Chain of UniProt P07949 (whole entry, unmodified, looked up): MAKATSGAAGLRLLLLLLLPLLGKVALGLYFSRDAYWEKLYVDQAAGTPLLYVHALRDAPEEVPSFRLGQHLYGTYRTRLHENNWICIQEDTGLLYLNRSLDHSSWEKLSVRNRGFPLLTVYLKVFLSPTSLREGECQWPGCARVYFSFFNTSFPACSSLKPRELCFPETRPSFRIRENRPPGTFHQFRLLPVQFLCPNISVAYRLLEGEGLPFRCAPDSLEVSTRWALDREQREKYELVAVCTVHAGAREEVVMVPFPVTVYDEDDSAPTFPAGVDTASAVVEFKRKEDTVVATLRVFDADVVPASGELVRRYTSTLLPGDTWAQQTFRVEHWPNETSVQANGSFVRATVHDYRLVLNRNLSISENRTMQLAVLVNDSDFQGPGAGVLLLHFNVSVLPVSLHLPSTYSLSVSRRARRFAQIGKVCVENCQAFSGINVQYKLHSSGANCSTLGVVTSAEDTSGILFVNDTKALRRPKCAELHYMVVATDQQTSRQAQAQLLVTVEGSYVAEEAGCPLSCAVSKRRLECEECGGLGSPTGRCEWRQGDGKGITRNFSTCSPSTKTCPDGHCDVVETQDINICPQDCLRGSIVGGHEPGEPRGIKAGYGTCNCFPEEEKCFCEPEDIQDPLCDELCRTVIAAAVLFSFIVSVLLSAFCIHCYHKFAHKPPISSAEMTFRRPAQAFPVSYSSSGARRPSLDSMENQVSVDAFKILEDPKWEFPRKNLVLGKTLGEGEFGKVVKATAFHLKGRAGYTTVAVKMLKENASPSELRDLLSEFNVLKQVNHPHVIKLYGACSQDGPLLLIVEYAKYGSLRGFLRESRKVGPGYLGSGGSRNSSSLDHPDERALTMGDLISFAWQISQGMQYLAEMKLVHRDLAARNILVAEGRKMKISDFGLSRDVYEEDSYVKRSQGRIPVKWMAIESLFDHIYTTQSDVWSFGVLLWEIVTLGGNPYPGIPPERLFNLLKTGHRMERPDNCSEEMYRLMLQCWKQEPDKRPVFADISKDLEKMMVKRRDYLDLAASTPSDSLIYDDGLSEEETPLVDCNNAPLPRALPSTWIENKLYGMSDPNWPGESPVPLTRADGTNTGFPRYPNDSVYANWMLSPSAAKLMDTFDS
Chain of UniProt P51451 (whole entry, looked up): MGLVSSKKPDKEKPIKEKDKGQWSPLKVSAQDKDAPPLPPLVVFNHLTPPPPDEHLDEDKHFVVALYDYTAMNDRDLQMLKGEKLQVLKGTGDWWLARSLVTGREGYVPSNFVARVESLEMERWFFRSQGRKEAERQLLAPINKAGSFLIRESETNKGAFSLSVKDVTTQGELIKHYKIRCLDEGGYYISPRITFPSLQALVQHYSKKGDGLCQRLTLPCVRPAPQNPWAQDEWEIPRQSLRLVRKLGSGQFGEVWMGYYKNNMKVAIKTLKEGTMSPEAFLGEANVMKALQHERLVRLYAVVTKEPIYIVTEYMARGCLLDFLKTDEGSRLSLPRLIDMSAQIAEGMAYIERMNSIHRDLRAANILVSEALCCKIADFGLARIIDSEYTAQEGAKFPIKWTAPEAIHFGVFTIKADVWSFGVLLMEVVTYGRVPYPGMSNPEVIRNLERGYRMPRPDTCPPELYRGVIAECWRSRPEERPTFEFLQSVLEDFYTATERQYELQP
Chain of UniProt Q59H18 (whole entry, looked up): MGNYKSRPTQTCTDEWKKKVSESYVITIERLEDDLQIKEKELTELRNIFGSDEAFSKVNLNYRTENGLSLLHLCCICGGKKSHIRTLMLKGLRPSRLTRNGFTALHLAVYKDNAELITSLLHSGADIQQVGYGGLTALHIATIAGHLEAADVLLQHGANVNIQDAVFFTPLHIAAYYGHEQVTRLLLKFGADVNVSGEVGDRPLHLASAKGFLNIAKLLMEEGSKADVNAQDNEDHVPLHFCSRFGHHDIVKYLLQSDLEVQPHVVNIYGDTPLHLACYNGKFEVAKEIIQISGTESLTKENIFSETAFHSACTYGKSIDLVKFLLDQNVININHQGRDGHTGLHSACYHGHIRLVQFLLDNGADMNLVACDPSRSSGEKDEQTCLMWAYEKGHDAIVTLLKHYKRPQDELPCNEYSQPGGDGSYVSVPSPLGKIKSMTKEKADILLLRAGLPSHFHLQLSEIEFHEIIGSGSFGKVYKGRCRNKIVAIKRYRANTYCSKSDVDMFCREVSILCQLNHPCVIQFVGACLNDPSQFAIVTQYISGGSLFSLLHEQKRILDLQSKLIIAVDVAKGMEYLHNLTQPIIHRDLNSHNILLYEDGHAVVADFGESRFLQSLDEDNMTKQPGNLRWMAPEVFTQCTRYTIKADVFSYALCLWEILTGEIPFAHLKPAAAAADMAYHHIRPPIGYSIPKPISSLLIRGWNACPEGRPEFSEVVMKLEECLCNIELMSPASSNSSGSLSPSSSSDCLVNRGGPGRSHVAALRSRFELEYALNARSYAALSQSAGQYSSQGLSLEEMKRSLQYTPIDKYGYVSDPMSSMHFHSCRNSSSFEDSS
Chain of UniProt O94921 (whole entry, looked up): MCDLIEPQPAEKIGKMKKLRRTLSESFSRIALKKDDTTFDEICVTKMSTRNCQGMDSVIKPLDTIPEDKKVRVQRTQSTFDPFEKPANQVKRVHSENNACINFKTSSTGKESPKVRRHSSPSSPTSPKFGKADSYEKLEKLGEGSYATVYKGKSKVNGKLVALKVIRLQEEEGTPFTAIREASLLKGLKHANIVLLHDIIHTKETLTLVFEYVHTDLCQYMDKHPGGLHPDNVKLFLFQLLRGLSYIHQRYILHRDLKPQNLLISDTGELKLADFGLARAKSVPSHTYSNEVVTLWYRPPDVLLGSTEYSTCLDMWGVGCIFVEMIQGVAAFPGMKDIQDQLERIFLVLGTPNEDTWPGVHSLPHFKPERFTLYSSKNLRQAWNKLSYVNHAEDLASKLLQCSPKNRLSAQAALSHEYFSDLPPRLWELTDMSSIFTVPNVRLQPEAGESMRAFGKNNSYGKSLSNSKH
Chain of UniProt Q14164 (whole entry, looked up): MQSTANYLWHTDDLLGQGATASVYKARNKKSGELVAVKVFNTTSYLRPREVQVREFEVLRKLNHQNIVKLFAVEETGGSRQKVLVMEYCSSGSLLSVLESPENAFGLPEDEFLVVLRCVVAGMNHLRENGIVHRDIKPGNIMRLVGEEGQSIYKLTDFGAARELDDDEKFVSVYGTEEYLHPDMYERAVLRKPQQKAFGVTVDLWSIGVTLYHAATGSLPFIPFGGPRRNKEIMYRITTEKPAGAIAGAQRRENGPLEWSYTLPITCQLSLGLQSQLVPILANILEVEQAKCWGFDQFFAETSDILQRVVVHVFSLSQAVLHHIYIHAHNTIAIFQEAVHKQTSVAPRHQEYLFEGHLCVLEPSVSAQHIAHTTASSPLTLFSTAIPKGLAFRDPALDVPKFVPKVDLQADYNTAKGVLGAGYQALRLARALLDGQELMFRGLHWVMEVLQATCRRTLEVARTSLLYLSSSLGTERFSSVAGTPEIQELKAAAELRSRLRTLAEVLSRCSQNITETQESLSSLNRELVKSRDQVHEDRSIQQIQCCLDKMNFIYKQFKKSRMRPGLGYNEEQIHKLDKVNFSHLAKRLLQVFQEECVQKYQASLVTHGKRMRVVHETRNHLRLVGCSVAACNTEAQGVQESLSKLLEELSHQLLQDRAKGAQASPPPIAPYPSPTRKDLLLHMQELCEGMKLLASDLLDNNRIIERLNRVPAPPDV

Study 1 — read-out: enzyme activity; action: inhibitor; concentration: 0.5 µM; relative to: control
Target: Serine/threonine-protein kinase Nek7 (NEK7, Homo sapiens, UniProt Q8TDX7)
Construct (Q8TDX7 1-302): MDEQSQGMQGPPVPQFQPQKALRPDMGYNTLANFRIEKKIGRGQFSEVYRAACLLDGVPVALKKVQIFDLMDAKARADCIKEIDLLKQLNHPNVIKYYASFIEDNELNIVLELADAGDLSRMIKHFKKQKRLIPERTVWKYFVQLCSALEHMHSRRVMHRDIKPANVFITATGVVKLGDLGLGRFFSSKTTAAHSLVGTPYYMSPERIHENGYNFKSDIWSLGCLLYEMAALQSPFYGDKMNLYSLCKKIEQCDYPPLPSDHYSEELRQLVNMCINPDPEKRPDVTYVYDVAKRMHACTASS
| SMILES | remaining activity |
| --- | --- |
| O=C1Nc2ccccc2/C1=C\c1c(Cl)[nH]c2ccccc12 | 97.6% |
| CCCNC(=O)Nc1ccc(Oc2ncnc3cc(OC)c(OC)cc23)cc1Cl | 103% |
| Cc1ccc(S(=O)(=O)/C=C/C#N)cc1 | 93.4% |
| O=C1Cc2c([nH]c3ccc(Br)cc23)-c2ccccc2N1 | 94.3% |
| O=C1NC(=O)c2c1c1c3ccccc3[nH]c1n1cncc21 | 80.3% |
| Cc1cc(Nc2cc(N3CCN(C)CC3)nc(Sc3ccc(NC(=O)C4CC4)cc3)n2)[nH]n1 | 92.8% |
| O=Nc1c(-c2c(O)[nH]c3cc(Br)ccc23)[nH]c2ccccc12 | 103% |
| O=C1NC(=O)c2c1c1c3ccccc3[nH]c1c1[nH]c3cc(Br)ccc3c21 | 96.8% |
| O=c1cc(N2CCOCC2)oc2c(-c3ccccc3)cccc12 | 92.1% |
| CN(C)S(=O)(=O)c1ccc2c(c1)/C(=C/c1cc3c([nH]1)CCCC3)C(=O)N2 | 103% |
| N#Cc1cnc2cnc(NCc3cccnc3)cc2c1Nc1ccc(F)c(Cl)c1 | 102% |
| CN1CCN(c2ccc3nc(-c4c(N)c5c(F)cccc5[nH]c4=O)[nH]c3c2)CC1 | 91.1% |
| COc1ccc(COc2ccc(Cc3cnc(N)nc3N)cc2OC)cc1 | 100% |
| COc1ccc2c(c1)c(C1=C(c3c[nH]c4ccccc34)C(=O)NC1=O)cn2CCCN(C)C | 99.1% |
| COc1cccc(-c2cc(=O)c3ccccc3o2)c1N | 94.7% |
| c1ccc2c(-c3ccncc3)c[nH]c2c1 | 104% |
| O=C(c1cc2cc(O)ccc2[nH]1)c1cc2cc(O)ccc2[nH]1 | 101% |
| c1ccc(-c2n[nH]c3c2oc2ccccc23)cc1 | 105% |
| Oc1cccc(-c2nc(N3CCOCC3)c3oc4ncccc4c3n2)c1 | 97.3% |
| O=C1Nc2ccc(Br)cc2/C1=C/c1cc2c([nH]1)CCCC2 | 103% |

Study 2 — species: human; sample: microsomes or S9; concentration: 2 µM; time: 0.5 h
| SMILES | remaining compound [%] |
| --- | --- |
| COc1cc(-c2nc(C)c(C(=O)NCCc3ccc(S(N)(=O)=O)cc3)s2)cc(OC)c1OC | 41.3 |
| CCC(C)(NCc1nnc(-c2ccc(F)cc2)o1)c1nc(C)cs1 (stereo not shown) | 25.7 |
| COc1ccc(CCCNC(=O)c2cnn3cc(Br)cnc23)cc1 | 48.9 |
| Cc1onc2c1COC2c1c(Cl)cccc1Cl (stereo not shown) | 74.2 |
| Cc1ccc(-c2cc(NC(=O)c3oc4ccc(F)cc4c3C)on2)cc1 | 60.3 |
| c1ccn2c(-c3noc(C4CCn5c(cnc5C5CCCCC5)C4)n3)cnc2c1 (stereo not shown) | 36.9 |
| COc1ccc(N)cc1N1CCCCS1(=O)=O | 101 |
| O=C(NCCc1nccs1)c1cc(-c2ccc(Br)s2)n[nH]1 | 82.4 |
| CC(C)CCNC(=O)N1Cc2c(sc3c2CCCC3)-n2cccc2C1c1ccccc1 (stereo not shown) | < 1 |
| COCCCNc1nnc(Cc2ccc(Cl)cc2)c(O)n1 | > 99.9 |

Study 3
SMILES: COc1cc(C(=O)N2CCC(N3CCN(C)CC3)CC2)ccc1Nc1ncc2c(n1)N(C)c1ccccc1C(=O)N2C
| tested on | test | system | conditions | inhibition [%] |
| --- | --- | --- | --- | --- |
| HCK (human) | probe labelling, KiNativ ADP probe | human PBMC lysate | concentration not given, LYS1 labelled site | -1.1 |
| LIMK1 (mouse) | probe labelling, KiNativ ADP probe | mouse brain lysate | 0.1 µM, LYS1 labelled site | -11.3 |
| MST4 and YSK1 human | KiNativ profiling | human PBMC | concentration not given, LYS2 site, added: ADP acyl phosphate probe | 9.2 |
| human PBMC | probe labeling, inhibitor, KiNativ profiling, measured: DVkPSNILVNSR | cell lysate | concentration not given, LYS2 site, added: ADP acyl-phosphate probe | -24.1 |
| Protein kinase C zeta type (Prkcz, Mus musculus, UniProt Q02956) | probe labelling, KiNativ, measured: Lys1 site peptide | brain tissue lysate (mouse) | 1 µM, added: ADP acyl-phosphate probe | 5 |
| RSKL1 kinase domain 1 (human) | probe labelling, KiNativ, measured: kinase domain site peptide | PBMC lysate (human) | 0.1 µM, added: ADP acyl-phosphate probe | 2.5 |
| ITPK1 | – | – | 0.1 µM | 4.5 |
| MYLK | KiNativ ATP probe | human PBMC lysate | 1 µM, ATP loop site | 14.6 |
| MINK (mouse) | probe labelling, inhibitor, KiNativ ActivX ATP probe | mouse brain lysate | 1 µM, Lys1 site peptide | 5.7 |
| TBK1 mouse | KiNativ profiling | mouse brain lysate | 0.1 µM, LYS1 site, added: ATP acyl phosphate probe | 9.8 |
| MLK1 (mouse) | probe labelling, KiNativ ADP probe | mouse brain lysate | 1 µM, LYS1 labelled site | 9.4 |

Study 4 — concentration: 1 µM
SMILES: NS(=O)(=O)c1cc(NC(=O)Cc2ccccc2)ccc1Oc1cccc(Cl)c1
| target | read-out | method | remaining binding |
| --- | --- | --- | --- |
| Serine/threonine-protein kinase Nek7 (NEK7, Homo sapiens, UniProt Q8TDX7) | cell-free assay | competition with immobilised ligand | 86% |
| Interferon-induced, double-stranded RNA-activated protein kinase (EIF2AK2, Homo sapiens, UniProt P19525) | cell-free assay | competition with immobilised ligand | 80% |
| Tyrosine-protein kinase Blk (BLK, Homo sapiens, UniProt P51451) | cell-free assay | competition with immobilised ligand | 68% |
| Receptor-type tyrosine-protein kinase FLT3 (FLT3, Homo sapiens, UniProt P36888, D835Y) | cell-free assay | competition with immobilised ligand | 95% |
| cAMP-dependent protein kinase catalytic subunit PRKX (PRKX, Homo sapiens, UniProt P51817) | cell-free assay | competition with immobilised ligand | 91% |
| Leukocyte tyrosine kinase receptor (LTK, Homo sapiens, UniProt P29376) | cell-free assay | competition with immobilised ligand | 87% |
| Cyclin-dependent kinase 14 (CDK14, Homo sapiens, UniProt O94921) | cell-free assay | competition with immobilised ligand | 95% |
| Serine/threonine-protein kinase WNK4 (WNK4, Homo sapiens, UniProt Q96J92) | cell-free assay | competition with immobilised ligand | 0% |
| Inhibitor of nuclear factor kappa-B kinase subunit epsilon (IKBKE, Homo sapiens, UniProt Q14164) | cell-free assay | competition with immobilised ligand | 69% |
| Epidermal growth factor receptor (EGFR, Homo sapiens, UniProt P00533, del747-752/P753S) | cell-free assay | competition with immobilised ligand | 67% |
| Tyrosine-protein kinase ABL2 (ABL2, Homo sapiens, UniProt P42684) | cell-free assay | competition with immobilised ligand | 87% |
| Proto-oncogene tyrosine-protein kinase receptor Ret (RET, Homo sapiens, UniProt P07949, M918T) | cell-free assay | competition with immobilised ligand | 83% |
| Aurora kinase A (AURKA, Homo sapiens, UniProt O14965) | cell-free assay | competition with immobilised ligand | 69% |
| Insulin receptor-related protein (INSRR, Homo sapiens, UniProt P14616) | cell-free assay | competition with immobilised ligand | 100% |
| Calcium/calmodulin-dependent protein kinase kinase 2 (CAMKK2, Homo sapiens, UniProt Q96RR4) | cell-free assay | competition with immobilised ligand | 91% |
| Activin receptor type-2A (ACVR2A, Homo sapiens, UniProt P27037) | cell-free assay | competition with immobilised ligand | 95% |
| Tyrosine-protein kinase Lyn (LYN, Homo sapiens, UniProt P07948) | cell-free assay | competition with immobilised ligand | 99% |
| Serine/threonine-protein kinase SIK1 (SIK1, Homo sapiens, UniProt P57059) | – | competition binding | 93% |
| Dual specificity protein kinase CLK2 (CLK2, Homo sapiens, UniProt P49760) | cell-free assay | competition with immobilised ligand | 91% |
| Tyrosine-protein kinase ABL1, phosphorylated (ABL1, Homo sapiens, UniProt P00519, Y253F) | cell-free assay | competition with immobilised ligand | 76% |
| Discoidin domain-containing receptor 2 (DDR2, Homo sapiens, UniProt Q16832) | cell-free assay | competition with immobilised ligand | 87% |
| Serine/threonine-protein kinase RIO3 (RIOK3, Homo sapiens, UniProt O14730) | cell-free assay | competition with immobilised ligand | 73% |
| Serine/threonine-protein kinase TNNI3K (TNNI3K, Homo sapiens, UniProt Q59H18) | cell-free assay | competition with immobilised ligand | 91% |

Excerpt of the above (study 2):
| SMILES | remaining compound [%] |
| --- | --- |
| c1ccn2c(-c3noc(C4CCn5c(cnc5C5CCCCC5)C4)n3)cnc2c1 (stereo not shown) | 36.9 |
| O=C(NCCc1nccs1)c1cc(-c2ccc(Br)s2)n[nH]1 | 82.4 |
| CC(C)CCNC(=O)N1Cc2c(sc3c2CCCC3)-n2cccc2C1c1ccccc1 (stereo not shown) | < 1 |
| COCCCNc1nnc(Cc2ccc(Cl)cc2)c(O)n1 | > 99.9 |
